Measurements pooled from the literature.

| Substance | tested on | assay | test system | conditions | how to read | endpoint | value |
| --- | --- | --- | --- | --- | --- | --- | --- |
| Nc1ncnc2c([C@@H]3N[C@H](CO)[C@@H](O)[C@H]3O)c[nH]c12 | Zaire ebolavirus | antibody staining | HeLa, Kikwit | 1.6 µM | – | antigen-positive cells | 56.3% |
| KIYSKHTPI | – | AIM | peptide, CD8+ T cells from PBMC, human donors | HLA-B*08:01 restricted, unit not given | relative to: positive over tested donors | frequency of responding donors | 20 |
| CC[C@H](C)[C@H](NC(=O)[C@H](CC(C)C)NC(=O)[C@H](Cc1c[nH]c2ccccc12)NC(=O)[C@H](CCC(N)=O)NC(=O)[C@@H](NC(=O)[C@H](Cc1ccccc1)NC(=O)[C@H](C)NC(=O)[C@H](CCCCNC(=O)COCCOCCNC(=O)COCCOCCNC(=O)CC[C@H](NC(=O)CCCCCCCCCCCCCCCCCCC(=O)O)C(=O)O)NC(=O)[C@H](CCC(N)=O)NC(=O)[C@H](C)NC(=O)[C@@H](NC(=O)[C@H](CCCCN)NC(=O)[C@H](CC(=O)O)NC(=O)[C@H](CC(C)C)NC(=O)C(C)(C)NC(=O)[C@@H](NC(=O)[C@H](CO)NC(=O)[C@H](Cc1ccc(O)cc1)NC(=O)[C@H](CC(=O)O)NC(=O)[C@H](CO)NC(=O)[C@@H](NC(=O)[C@H](Cc1ccccc1)NC(=O)[C@@H](NC(=O)CNC(=O)[C@H](CCC(=O)O)NC(=O)C(C)(C)NC(=O)[C@@H](N)Cc1ccc(O)cc1)[C@@H](C)O)[C@@H](C)O)[C@@H](C)CC)[C@@H](C)CC)C(C)C)C(=O)N[C@@H](C)C(=O)NCC(=O)NCC(=O)N1CCC[C@H]1C(=O)N[C@@H](CO)C(=O)N[C@@H](CO)C(=O)NCC(=O)N[C@@H](C)C(=O)N1CCC[C@H]1C(=O)N1CCC[C@H]1C(=O)N1CCC[C@H]1C(=O)N[C@@H](CO)C(N)=O | – | – | healthy subjects, single ascending dose | 5.0 mg | – | hypoglycaemia (glucose ≤70 mg/dL) | 0% |
| CC(C)(C)[C@@H]1NC(=O)O[C@@H]2CCC[C@H]2OC/C=C/C(F)(F)c2nc3ccccc3nc2O[C@@H]2C[C@@H](C(=O)N[C@]3(C(=O)NS(=O)(=O)C4(C)CC4)C[C@H]3C(F)F)N(C2)C1=O | Replicase polyprotein 1ab, main protease (rep, Severe acute respiratory syndrome coronavirus 2, UniProt P0DTD1) | reporter gene (mKate2), inhibitor | – | 20 µM | – | inhibition | 0.912% |
| SHRFYRLANECAQVL | human CD4 T cells | AIM | peptide | – | – | responding donors | 6% |

For quick reference, copied from above:
| Substance | tested on | assay | test system | conditions | how to read | endpoint | value |
| --- | --- | --- | --- | --- | --- | --- | --- |
| CC(C)(C)[C@@H]1NC(=O)O[C@@H]2CCC[C@H]2OC/C=C/C(F)(F)c2nc3ccccc3nc2O[C@@H]2C[C@@H](C(=O)N[C@]3(C(=O)NS(=O)(=O)C4(C)CC4)C[C@H]3C(F)F)N(C2)C1=O | Replicase polyprotein 1ab, main protease (rep, Severe acute respiratory syndrome coronavirus 2, UniProt P0DTD1) | reporter gene (mKate2), inhibitor | – | 20 µM | – | inhibition | 0.912% |
